Assay results from different studies.
Parts stem from different laboratories: compare values within a part only.

Set 1 — technique: RNA Bind-n-Seq; molecule type: RNA; sample: in vitro; concentration: 200 nM; setting: whole 134-nt RNA, ends assumed; together with: 150 mM LiCl; reference: input library; direction: higher = stronger binding; all molecules: 7-deaza-guanosine replaces G
Target: Fragile X messenger ribonucleoprotein 1, C-terminal low-complexity region (Fmr1, Mus musculus, UniProt P35922)
Constant ends, left off below: GGGAGUUCUACAGUCCGACGAUC … UGGAAUUCUCGGGUGUCAAGG
Strand	log2 enrichment
ACCAUGCAGGUGGGCAUCUUUGGGAAGUGGGGCAAGGGGGGGAUAGGGAGGGGGGUAACACUUUGGGAACAGGUAAACCCAGGUCGUUUC	1.52
UCCUCAAGUCCUGUGCUACACAUCGUAUGUACCGAAUCGGGGCGGCGGCGGAAAGUAUUAUGUUACGCCGUUCGGAUCUGCACUUCCAGC	0.00781
CCUGUGCUACACAUCGUAUGUACCGAAUCGGUUUUUUUGGGUUUUUUUGGUUUUUUUGGGAAAGUAUUAUGUUACGCCGUUCGGAUCUGC	-0.834
UUCAUGAGGACCUCCGCCUGCUCUUGGAGACCCACCUGCCGUCCAAAAAGAAGAAAGUACUCUUGGGAGUUGGGGAUCCCAAGAUUGGUG	0.741
CAAGUCCUGUGCUACACAUCGUAUGUACCGAAUCGGGUGGGUUUGGGUUUUUGGGAAAGUAUUAUGUUACGCCGUUCGGAUCUGCACUUC	-0.689
CCUCAAGUCCUGUGCUACACAUCGUAUGUACCGAAUCGGGGUGGGUGGUGGGGAAAGUAUUAUGUUACGCCGUUCGGAUCUGCACUUCCA	-0.648

Set 2 — technique: RNA Bind-n-Seq; molecule type: RNA; sample: in vitro; concentration: 365 nM; reference: no-protein control; direction: higher = stronger binding
Target: RNA binding protein fox-1 homolog 2, RRM domain, GST-SBP tag (RBFOX2, Homo sapiens, UniProt O43251-10, residues 100-194)
Setting: natural RNA segment, single round, ends assumed
Constant ends, left off below: GGGAGUUCUACAGUCCGACGAUC … UGGAAUUCUCGGGUGCCAA
Target sequence (chain): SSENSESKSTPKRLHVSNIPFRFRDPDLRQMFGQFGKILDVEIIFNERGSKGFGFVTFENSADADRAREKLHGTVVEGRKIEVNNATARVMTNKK
Strand	RBNS enrichment (R)
UUUUCCUCUAGCAAGCCAGCUGUGCUGAAGCCCAGUAGAGAUGAAGAGACACCAGCCAGAGAAAACCCCCUCUAGAAGGAAUGUAUUUGUUGCUAAAUUUUGUAGCACUG	0.515
CGGGGAGGCCCUCACCUUCCAGAGAGGACAGACACAGAUUUCCUGCUGGGGGAGGGAGGAGUCCACGCAUCCUGAUGCUGCCUGGAAGCUUAUUUUCCCGUGGCCAGGAC	0.344
CCUAAGCACUUGCUGUUGUUCUUUUGUGAUUAUGGCUGUACAUUUAGUUGUCUUUCUAGUUAUGAAAAGAACGUUGACACACGUAGGCAUGGCCGCCCCACUCAGGUGUU	0.439
UCAUGCAGCCUCAGCCCAGGCUAACCCAGUCAGUGUUUUCACCACGUCUGACCUUUCUCUCUGCACUUAGGAUUGGUGUCCACUUGUAGAUUUCUUUCAACACAGUAUAA	1.16
UCAGCCUAGCAGAGCUGAAAGGAGCAGGCUUGGCUUGGUAGAGAGGGGGGCAGAAAGGAGAUAAUCUCAAUGUGUUCUUUCCUGUAUGCCUUGGCUCUAACUCUGCUGCU	0.685
UUCUGUGAGAAGUGUUCUUAAACUUAUUAAGUGUCUAAACUAAGGUUUAGUGCUUUUUUAAAGGAAAGUUGUCCCAGGAUUCAUCCUAAAGAAAGCAAAAGUUAAUUCAA	0.321

Set 3 — technique: protein binding microarray; molecule type: double-stranded DNA, one strand shown; sample: in vitro; concentration: not given; reference: not given; direction: higher = stronger binding
Target: Histone acetyltransferase KAT6A, both winged helices, GST fusion (KAT6A, Homo sapiens, UniProt Q92794, residues 1-181)
Setting: 8-mer, flanks averaged, mean of 2 arrays, mostly near background
Construct (chain): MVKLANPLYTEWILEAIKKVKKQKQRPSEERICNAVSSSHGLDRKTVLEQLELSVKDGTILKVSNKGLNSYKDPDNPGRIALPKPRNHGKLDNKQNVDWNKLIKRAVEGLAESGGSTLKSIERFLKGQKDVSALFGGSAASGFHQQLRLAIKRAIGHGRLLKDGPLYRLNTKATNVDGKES
Strand	E-score
CTTGCCGA	0.0657
GAACCGTC	0.152
AACGATGC	-0.041
CCAACGAG	-0.204
CACAAATC	-0.0184

Single results of other studies
Substance	target	test	test system	setting	how to read	quantity	result
PhoQ, residues 284 288 289 292 302 303 QWQEDG	PhoP, residues 12 14 15 18 19 IFFTR (Escherichia coli, UniProt P23836)	Sort-seq, item: YFP reporter	E. coli	PhoQ-PhoP variant library, together with: 10 µM Mg2+	reference: high Mg2+ state, higher = stronger signaling	fold induction	16.8

A few entries again (set 1):
Strand	log2 enrichment
UUCAUGAGGACCUCCGCCUGCUCUUGGAGACCCACCUGCCGUCCAAAAAGAAGAAAGUACUCUUGGGAGUUGGGGAUCCCAAGAUUGGUG	0.741
ACCAUGCAGGUGGGCAUCUUUGGGAAGUGGGGCAAGGGGGGGAUAGGGAGGGGGGUAACACUUUGGGAACAGGUAAACCCAGGUCGUUUC	1.52
